Experimental data from different studies.
Numbered parts are unrelated; each lists some results of a single study. Positions count from the first letter of the parent shown.

Block 1 — technique: DHFR PCA, deep sequencing; matrix: yeast; with: (+)-ABA 1.4 µM; baseline: wild-type fitted maximum; direction: higher = stronger binding
Target: ABI1, truncated, D143A, DHFR fusion (Arabidopsis thaliana)
Notes: methotrexate growth selection, single substitutions
Starting sequence: PYL1, truncated, DHFR fusion (Arabidopsis thaliana); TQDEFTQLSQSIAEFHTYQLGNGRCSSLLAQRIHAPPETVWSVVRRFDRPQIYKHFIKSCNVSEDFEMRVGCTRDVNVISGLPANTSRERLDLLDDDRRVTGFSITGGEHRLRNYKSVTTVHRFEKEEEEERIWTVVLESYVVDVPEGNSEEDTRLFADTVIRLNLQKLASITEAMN; partner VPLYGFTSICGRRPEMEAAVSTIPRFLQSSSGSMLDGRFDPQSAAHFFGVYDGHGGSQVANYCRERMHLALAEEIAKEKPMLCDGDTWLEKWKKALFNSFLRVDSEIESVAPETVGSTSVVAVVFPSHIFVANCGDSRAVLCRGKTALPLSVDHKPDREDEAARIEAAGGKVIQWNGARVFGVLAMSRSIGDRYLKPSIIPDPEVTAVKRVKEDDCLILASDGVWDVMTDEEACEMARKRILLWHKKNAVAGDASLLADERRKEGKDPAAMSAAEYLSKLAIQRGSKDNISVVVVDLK
Substitution | relative binding score [%]
A84K | 7.19
F56E | 4.76
S140F | -17
S9G | 50.9
P50F | -10.8
A170V | -6.22
F47V | 0.385
G148Q | 2.82
R163T | 49.9
L82A | -0.186
V78L | 75.2
K168F | -14.3
A158C | 85.4
E174N | 2.87

Block 2 — technique: RNA Bind-n-Seq; form: RNA; matrix: in vitro; concentration: 365 nM; baseline: no-protein control; direction: higher = stronger binding
Target: RNA binding protein fox-1 homolog 2, RRM domain, GST-SBP tag (RBFOX2, Homo sapiens, UniProt O43251-10, residues 100-194)
Notes: natural RNA segment, single round, ends assumed
Constant ends, left off below: GGGAGUUCUACAGUCCGACGAUC … UGGAAUUCUCGGGUGCCAA
Residues (chain): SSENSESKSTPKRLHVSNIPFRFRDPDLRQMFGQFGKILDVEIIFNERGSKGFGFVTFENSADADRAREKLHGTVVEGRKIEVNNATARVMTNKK
Oligonucleotide | RBNS enrichment (R)
UGAGACAUAGGGUCACUAGAGACCCUUCUGGGUCAGAGGAGAGAGACUGAAUUGGACUAAACCCGUCCUCUGUUCCCAGCACGUUUCUCAUAUAGCCCUCAGUCACUGAG | 2.22
UUUCAGACAUAACCAACUUAUAAAUGACCUAUUUCUUCAGGCUAGCUUCUACAACACUGACCUCCAUGAGGUAUUUACUGUGCAAUAACAGAUUCGUCUUCUGAGAGCUU | 0.275
CCCUGAUCUGGGCCUUCCUGUCCCAGGGCCUAUGGGCAACUGCGUUGAAAGGACGUUCGCCAAGGGCCGUGUGUAAAUACGAACUGCGCCAUGGAGAGGAGAGGCACUGC | 0.276
GAAGUAUUUAAAAUUAAUCACCUUAGCUCUACCAUAUACUAGAUCUGUGACCGCUACACAAAUUGUUUAUCAUCUUUGGGUCUCUAUUGCCUUCUUUAUAAAAUAAGUGU | 0.367
GUAGGUGACUUGUUUACACAGCUUUUUUCGACCCACAAACUUUUUUCAUUUGGAAAGGGUGUAAGAAAAGUCGGACGUGUGUGUGCCUGGCUCUUCGUCCCCAGUCUCCC | 0.277
CUCGAGUAAUCAGAAAUCACAUCCCUGGAGAACCCACCACCCACUAUGGACCUCAGGGCACUCUCCGUGCUGCCCACAAAGACUUGGGUGGAAAAGACUCAAAGGCACUU | 0.158
UGCCGUGCUUUCCUCCAGUUAUCCUUUGCAUUAACUACGUGGGAACUCUUGCAGGCUAUAUAUGUGAAGAAUAGUUGUGAUGUAGAUGGAAAGAAAAUGUAUUAUUGUGU | 1.44
UUUGAAGUCAGUGGUUUAGAAAUGAGAUACCAAUGUUAAUGAAAAGUAUGUACUCUUUGCUUUUGCAUGGCUUGGCUUAGUAUCCAAGGUAUAUUAGAGCCACUUGAAAG | 3.08
AGAUAAGAAAACUGCAUGUGGAGAGCGGCGCACAAGAGUUCUGAGUUCAGCACGUCCCCCACCCUCUUCCUGCCGCCUGCAAACCUCACGUGCAGCUUUUCUAUAUGCAC | 4.63
GUUUGCCUCUGCUGACUCCUGGCAUCACCUCCUGGGACACUUGCUGUCUUUUUUACUUGUCUCAUUUUCUUUCACAGCACUGAGGUCUCACCAAAUUUUCUAAUUUUUAU | 0.556
UCAUCGUAGUGCGGGCCGUAUUAGAGGCAGUGGGGUACGUUAGACUCAGAUGGAAAAGUAUUCUAGGUGCCAGUGUUAGGAUGUCAGUUUUACAAAAUAAUGAAGCAAUU | 0.634
CAGUGCAUGAUGUUUAAGGCCACAUAUAGUCCAGCUGAUGCCAAUAAUAAAAGACAAGAAACCAAGUGGGCUGGUAUUUUCUCUAUGCAAAAUGUCUGUGGAGAUGGAUG | 1.13

Block 3 — target: HLF, bZIP domain (human); technique: DHFR protein complementation; matrix: yeast; baseline: wild-type JUN-FOS pair; direction: higher = stronger binding
Notes: single substitutions, most at no-binding floor
Starting sequence: JUN, bZIP domain (human); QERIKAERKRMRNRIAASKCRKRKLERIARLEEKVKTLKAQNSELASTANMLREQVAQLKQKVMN; partner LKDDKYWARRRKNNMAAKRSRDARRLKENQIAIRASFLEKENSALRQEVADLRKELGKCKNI
Substitution | binding fitness [natural log]
Q58R | -1.3
E44R | -1.4
A40K | -1.34
E44P | -1.53
Q55V | -1.29
S47Y | -1.42
I28C | -1.16
R30Y | -1.48
L38V | -1.39
E44V | -1.46
E33R | -1.3
L52Q | -1.49
Q55W | -1.42
I28S | -1.47
K39N | -1.39
Q41V | -1.38
V35G | -1.5
L31M | -1.43
L59S | -1.33

Block 4 — technique: competition protein-binding microarray; form: double-stranded DNA, one strand shown; matrix: in vitro; concentration: 2 µM; with: Pho4 competitor, 0.05 µM; direction: higher = stronger binding; constant ends, left off below: … GTCTTGATTCGCTTGACGCTGCTG
Target: Centromere-binding protein 1, full length, His-tagged (CBF1, Saccharomyces cerevisiae, UniProt P17106, residues 1-351)
UniProt P17106, sequence (whole entry, looked up): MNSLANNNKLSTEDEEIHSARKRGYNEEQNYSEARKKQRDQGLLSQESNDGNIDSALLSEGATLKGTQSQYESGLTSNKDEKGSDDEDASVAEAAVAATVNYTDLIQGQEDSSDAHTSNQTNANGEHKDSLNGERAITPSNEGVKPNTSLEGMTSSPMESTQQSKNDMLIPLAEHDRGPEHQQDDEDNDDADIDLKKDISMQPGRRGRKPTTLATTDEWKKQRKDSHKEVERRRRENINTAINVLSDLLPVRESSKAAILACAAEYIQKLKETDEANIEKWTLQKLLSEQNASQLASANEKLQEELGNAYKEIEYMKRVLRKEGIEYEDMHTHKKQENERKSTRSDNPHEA
Notes: whole 60-bp probe, lowest competitor level
Oligonucleotide | fluorescence intensity
ATCACATCAAAACATTGTGGTTCTCTGAACAGCCTA | 84.8 a.u.
CGGGGTTAAGTTTTTCACGTGGATTGCTTGCAGCAG | 463 a.u.
AAATTACTAAGTTGACCAGTGGGTGACGCCGTATGA | 67.5 a.u.
GTACAATAACATATGCACATGGCAACGGGTCTTGGT | 158 a.u.
TTTATCGTTTTCTGTGACGTGGCCGATGAGCACCAG | 77.7 a.u.
AAATTACTAAGTTGTCTGGTGGGTGACGCCGTATGA | 63.1 a.u.
GTCTTGTCTCATTTTCACGTGAACTTCCCCACTTCA | 709 a.u.
ACACTAGAATTGACTCTCGTGGCCGTAATACGAACA | 77.6 a.u.
TTATGGATAGAGTCCCACGCTGATATAAACACCATA | 81.1 a.u.
AAATTACTAAGTTGGGAGGTGGGTGACGCCGTATGA | 62.9 a.u.
CTTTCCCGATCTTGGTACGTGGGTGTAGCACATTTG | 76.5 a.u.
GTTATTAAACTCCGTCACAGTAAGGCATACCCCATT | 63.8 a.u.
GTCTTGTCTCATTGGACAGTGGGTGTCCCCACTTCA | 85.9 a.u.
GCTAAATCATATTCCAACGTGTAATGAACGTCCTGG | 95.1 a.u.
AGGCCAATGCTGCTAAGCGTGCTAAAGCTAAGGCTC | 55.2 a.u.
TTCTTTGGTCTTGGCCAGAGGTCCCAGAGTCGAAAA | 54.7 a.u.
CGGGGTTAAGTTTGTCACATCACTTGCTTGCAGCAG | 69.5 a.u.
GTATCCGCACCGCAGTTCGTGACAAGTGCCTGCGTT | 65.6 a.u.

Block 5 — target: CCND2, cyclin fold, Cln2 fusion (human); technique: yeast growth competition, sequencing; matrix: yeast; notes: strong parent motif; baseline: not given; direction: higher = stronger binding
Starting sequence: PKN2 docking peptide (human); VSAVRKLDFSDTM; partner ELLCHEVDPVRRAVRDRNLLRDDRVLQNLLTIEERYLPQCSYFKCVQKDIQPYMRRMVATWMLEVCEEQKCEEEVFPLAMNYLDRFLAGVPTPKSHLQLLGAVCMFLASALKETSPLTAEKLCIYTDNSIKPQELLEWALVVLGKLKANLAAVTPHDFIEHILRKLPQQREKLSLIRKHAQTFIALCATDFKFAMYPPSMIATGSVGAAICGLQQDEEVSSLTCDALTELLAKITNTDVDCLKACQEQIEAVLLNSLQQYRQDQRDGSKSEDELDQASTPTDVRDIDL
Substitution | normalised enrichment score
K6I | 1.69
D8Y | 1
D8T | 2
A3T | 1.42
T12Y | 3.4
S2K | 2.68
D8V | 1.77
K6D | 0.167
A3P | 1.31
T12I | 3.35
R5W | 0.63
V4A | 3.26
T12N | 4.04
S10D | 3.37
F9V | 0.271
A3E | -0.249
A3D | -0.0566
R5S | 0.239
D11G | 3.16
S10W | 1.45
R5F | 0.398
D8P | 0.71
L7R | 0.0979
L7N | 0.165
D11A | 3.11

Other studies, line by line
Substance | target | test | system | conditions | how to read | endpoint | value
PhoQ, residues 284 288 289 292 302 303 TAVSDG | PhoP, residues 12 14 15 18 19 LHHVQ (Escherichia coli, UniProt P23836) | Sort-seq, item: YFP reporter | E. coli | PhoQ-PhoP variant library, with: 10 µM Mg2+ | baseline: high Mg2+ state, higher = stronger signaling | fold induction | 0.942

Excerpt of the above (block 3):
Substitution | binding fitness [natural log]
A40K | -1.34
E44P | -1.53
Q55V | -1.29
S47Y | -1.42
I28C | -1.16
R30Y | -1.48
L38V | -1.39
E44V | -1.46
